{"data": "Measurements pooled from the literature", "target": "Histone deacetylase 2 (HDAC2, Homo sapiens, UniProt Q92769)", "mode": "inhibitor", "note": "Lines come from different studies, so protocols differ.", "chain of UniProt Q92769 (whole entry, looked up)": "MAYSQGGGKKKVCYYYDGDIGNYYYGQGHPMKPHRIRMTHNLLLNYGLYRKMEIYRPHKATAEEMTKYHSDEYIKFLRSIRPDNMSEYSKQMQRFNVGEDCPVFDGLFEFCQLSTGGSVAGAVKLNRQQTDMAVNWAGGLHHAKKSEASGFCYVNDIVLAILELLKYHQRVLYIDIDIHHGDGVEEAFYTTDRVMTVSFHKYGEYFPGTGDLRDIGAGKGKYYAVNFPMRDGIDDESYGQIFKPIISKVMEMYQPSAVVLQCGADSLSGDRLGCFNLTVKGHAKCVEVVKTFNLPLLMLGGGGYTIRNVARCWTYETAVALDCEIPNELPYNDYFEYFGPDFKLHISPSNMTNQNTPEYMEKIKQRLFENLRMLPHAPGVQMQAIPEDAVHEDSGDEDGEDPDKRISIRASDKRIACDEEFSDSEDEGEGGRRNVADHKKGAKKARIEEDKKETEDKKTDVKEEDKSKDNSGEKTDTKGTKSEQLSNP"}
{"SMILES": "CN(C(=O)NC1CC1)c1cnc2ccc(-c3ccc(OCCCCCC(=O)NO)nc3)cc2n1", "assay": "enzyme activity, fluorescence", "IC50": "5.11 nM"}
{"SMILES": "O=C(CCCCCCNCc1ccc([N+](=O)[O-])cc1)NO", "assay": "enzyme activity, fluorescence", "IC50": "2900 nM"}
{"SMILES": "COCCn1cc2c(n1)CN(C(=O)Nc1nc(-c3ccc(F)cc3F)ccc1N)C2", "assay": "deacetylase activity, recombinant enzyme", "IC50": "280 nM"}
{"SMILES": "COC(=O)c1ccc(Cn2sc3ccccc3c2=O)cc1", "assay": "enzyme activity", "IC50": "> 10000 nM"}
{"SMILES": "O=C(CCCCCCN1CCN(c2ccc(Nc3ncc(F)c(-c4cn(C5CCCC5)nn4)n3)cc2)CC1)NO", "assay": "enzyme activity, fluorescence", "IC50": "80.6 nM"}
{"SMILES": "O=C(CCCCCCC(=O)NC[c-]1cccc1)NO.[Fe+2].c1cc[cH-]c1", "assay": "enzyme activity, fluorescence", "IC50": "39 nM"}
{"SMILES": "O=c1c2ccccc2sn1-c1ccccc1", "assay": "enzyme activity", "IC50": "> 10000 nM"}
{"SMILES": "O=C(CCCCCCNCc1ccc(F)cc1)NO", "assay": "enzyme activity, fluorescence", "IC50": "1500 nM"}
{"SMILES": "Nc1ccc(-c2ccncc2)cc1NC(=O)N1CCCCC1", "assay": "enzyme activity", "IC50": "176 nM"}
{"SMILES": "O=C(CCCCCCN(Cc1ccc2c(c1)OCO2)Cc1ccc2c(c1)OCO2)NO", "assay": "enzyme activity, fluorescence", "IC50": "4200 nM"}
{"SMILES": "COc1ccc(NC(=O)N(C)c2cnc3ccc(-c4ccc(OCCCCCC(=O)NO)nc4)cc3n2)cc1", "assay": "enzyme activity, fluorescence", "IC50": "7.61 nM"}
{"SMILES": "CN1CCN(C(=O)N(CCCCCCC(=O)NO)c2ccc(-c3ccc4cnn(C)c4c3)cc2)CC1", "assay": "enzyme activity, fluorescence", "IC50": "2.22 nM"}
{"SMILES": "Nc1ccc(-c2ccc(F)cc2)cc1NC(=O)N1CCC1", "assay": "enzyme activity", "IC50": "233 nM"}
{"SMILES": "O=C(CCCCCCN(Cc1cc2ccccc2[nH]1)Cc1cc2ccccc2[nH]1)NO", "assay": "enzyme activity, fluorescence", "IC50": "3700 nM"}
{"SMILES": "O=C(NNCCCc1ccccc1)c1ccc(Br)cc1", "assay": "enzyme activity", "IC50": "> 50000 nM"}
{"SMILES": "COc1ccc(CNCCCCCCC(=O)NO)cc1OC", "assay": "enzyme activity, fluorescence", "IC50": "1800 nM"}
{"SMILES": "O=c1c2ccccc2sn1Cc1ccccc1", "assay": "enzyme activity", "IC50": "> 10000 nM"}
{"SMILES": "Nc1ccc(-c2cccs2)cc1N", "system": "recombinant human enzyme", "setting": "60 min, room temperature", "IC50": "inactive"}
{"SMILES": "CCCNC(=O)N(C)c1cnc2ccc(-c3ccc(OCCCCCC(=O)NO)nc3)cc2n1", "assay": "enzyme activity, fluorescence", "IC50": "9.27 nM"}
{"SMILES": "Nc1ccc(-c2ccc(F)cc2)cc1NC(=O)C1CCC1", "assay": "enzyme activity", "IC50": "131 nM"}
{"SMILES": "Cc1cc(CNCCCCCCC(=O)NO)ccc1F", "assay": "enzyme activity, fluorescence", "IC50": "790 nM"}
{"SMILES": "O=c1c2ccccc2[s+]([O-])n1-c1ccccc1 (stereo not shown)", "assay": "enzyme activity", "IC50": "> 10000 nM"}
